Results gathered from unrelated publications.
Compare with care: the assays were run in different laboratories. Numbers after ± are the reported error.

FC(F)(F)c1ccnc(-c2cc(C(F)(F)F)ccn2)c1.FC(F)(F)c1ccnc(-c2cc(C(F)(F)F)ccn2)c1.[Cl-].[Cl-].[Ru+2].c1csc(-c2ccc(-c3ccc(-c4nc5c6cccnc6c6ncccc6c5[nH]4)s3)s2)c1
EC50 (SK-MEL-28; cell viability, resazurin; green light, hypoxia 1% O2): 0.3 to 1 µM

Cc1cc2cc(O)c(O)cc2c(O)c1-c1c(C)cc2cc(O)c(O)cc2c1O
EC50 (H460; ATP-lite viability; 72 h): 10.1 µM

N=C(N)NCCC[C@H](N)C(=O)N1CCC[C@H]1C(=O)N[C@@H](CCCCN)C(=O)N1CCC[C@H]1C(=O)N[C@@H](CCC(N)=O)C(=O)N[C@@H](CCC(N)=O)C(=O)N[C@@H](Cc1ccccc1)C(=O)N[C@@H](Cc1ccccc1)C(=O)NCC(=O)O
EC50 (LAD2 human mast cells; CCL2 release, activator, refers to: CCL2; 24 h, 37 °C): 11.8 µM

CC(=O)OC[C@H]1O[C@@H]([Se][Se][C@@H]2O[C@H](COC(C)=O)[C@H](OC(C)=O)[C@H](OC(C)=O)[C@H]2OC(C)=O)[C@H](OC(C)=O)[C@@H](OC(C)=O)[C@H]1OC(C)=O
EC50 (J774 mouse macrophages; viability; 24 h): 6.9 ± 0.54 µM

C(=C/c1ccccc1)/c1ccccc1
EC50 (CCRF-CEM; apoptosis, Hoechst staining; 24 h): > 500 µM

CCCCCCCCCCCCCCCC(=O)N[C@@H](CCC(=O)NCCCC[C@H](NC(=O)[C@H](CC(=O)O)NC(=O)[C@H](CO)NC(=O)[C@@H](NC(=O)[C@H](Cc1ccccc1)NC(=O)[C@@H](NC(=O)CNC(=O)[C@H](CCC(N)=O)NC(=O)[C@H](CO)NC(=O)[C@@H](N)Cc1c[nH]cn1)[C@@H](C)O)[C@@H](C)O)C(=O)N[C@@H](CO)C(=O)N[C@@H](CCC(=O)O)C(=O)N[C@@H](Cc1ccc(O)cc1)C(=O)N[C@@H](CC(C)C)C(=O)N[C@@H](CC(=O)O)C(=O)N[C@@H](CO)C(=O)N[C@@H](CCC(=O)O)C(=O)N[C@@H](CCCNC(=N)N)C(=O)N[C@@H](C)C(=O)N[C@@H](CCCNC(=N)N)C(=O)N[C@@H](CC(=O)O)C(=O)N[C@@H](Cc1ccccc1)C(=O)N[C@H](C(=O)N[C@@H](C)C(=O)N[C@@H](Cc1c[nH]c2ccccc12)C(=O)N[C@@H](CC(C)C)C(=O)N[C@@H](CCC(=O)O)C(=O)N[C@@H](C)C(=O)NCC(=O)NCC(=O)O)C(C)C)C(=O)O
EC50 (pooled primary human hepatocytes; cAMP accumulation, agonist; added: 0.1% BSA): 0.00245 ± 0.000151 µM

Cc1ccc2c(n1)c1nc(C)ccc1c1nc3cc4ccccc4cc3nc21.[Ru+2].c1ccc(-c2cccc(-c3ccccn3)n2)nc1.c1ccncc1
EC50 (M2 murine macrophages; cell viability, MTT; 1 h, dark): > 25 µM

CSCC[C@H](NC(=O)[C@H](C)NC(=O)[C@H](C)NC(=O)[C@H](C)N)C(=O)N[C@@H](CCCCN)C(=O)N[C@@H](CCCNC(=N)N)C(=O)N[C@@H](Cc1c[nH]cn1)C(=O)NCC(=O)N[C@@H](CC(C)C)C(N)=O
EC50 (2D12.1 T cell hybridoma; T cell activation, agonist, refers to: IL-2; 24 h, NOD mouse spleen cells): > 10 µM

O=C(N[C@@H](Cc1coc2ccccc12)B(O)O)[C@@H]1C[C@H]2CC[C@@H]1O2
EC50 (MM1.S; refers to: ubiquitinated proteins; 6 h; increase): 1.98 µM

[Ru+2].c1ccc(-c2ccc3c(n2)c2ncccc2c2nc4cc5ccccc5cc4nc32)nc1.c1ccc(-c2ccc3c(n2)c2ncccc2c2nc4cc5ccccc5cc4nc32)nc1
EC50 (M2 murine macrophages; cell viability, MTT; 1 h, dark): > 25 µM

c1ccc(CN2CCOCCOCCN(CCCCCCCCCCCCCCN3CCOCCOCCN(CCCCCCCCCCCCCCN4CCOCCOCCN(Cc5ccccc5)CCOCCOCC4)CCOCCOCC3)CCOCCOCC2)cc1
EC50 (human Hepatocyte; cell growth or viability; 72 h): 2.1 µM

CC(C)C[C@H](NC(=O)[C@H](CO)NC(=O)[C@H](Cc1ccc(O)cc1)NC(=O)CNC(=O)[C@H](CCCNC(=N)N)NC(=O)[C@H](Cc1ccc(O)cc1)NC(=O)[C@H](CC(N)=O)NC(=O)[C@H](CC(=O)O)NC(=O)[C@@H](N)CC(C)C)C(=O)NCC(=O)N[C@@H](CC(N)=O)C(N)=O
EC50 (2D12.1 T cell hybridoma; T cell activation, agonist, refers to: IL-2; 24 h, NOD mouse spleen cells): > 10 µM

FC(F)(F)c1ccnc(-c2cc(C(F)(F)F)ccn2)c1.FC(F)(F)c1ccnc(-c2cc(C(F)(F)F)ccn2)c1.[Cl-].[Cl-].[Ru+2].c1csc(-c2ccc(-c3ccc(-c4ccc(-c5nc6c7cccnc7c7ncccc7c6[nH]5)s4)s3)s2)c1
EC50 (SK-MEL-28; cell viability, resazurin; visible light, normoxia, lowest replicate): 0.009 µM

CC(=O)OC1CCC(OC(C)=O)O1 (racemic)
EC50 (human T-lymphocyte; cell growth or viability, MTT; 48 h): > 10 µM
